Measurements of several laboratories.
Lines come from different studies, so protocols differ. ± marks the error that the study gave.

The solubility of `c1ccc(CSc2ncnc3nc[nH]c23)cc1` is reported as 138 µM (UV absorbance; culture medium; stock diluted to 0.20 mM).
For `Cc1nc(C)c(-c2ccnc(Nc3cccc([N+](=O)[O-])c3)n2)s1`, the solubility was under 1.4 µg/mL (aqueous buffer; pH 7.4).
`CCOC(=O)N1C[C@@H](c2ccc(C(C)(C)C)cc2)N[C@@H](C(CC)CC)C1` has a solubility of under 4 µM (shake-flask, LC-HRMS; aqueous buffer; 16 h, pH 6.8).
`NC(=O)N1c2ccccc2C=Cc2ccccc21` has a solubility of 64.3 ± 1.5 µM (LC-MS; DPBS; 18 h).
For `COc1ccc(Nc2ccnc3ccc(-c4ccc(S(=O)(=O)N5CCOCC5)cc4)cc23)cc1Cl`, the solubility was 1 µM (thermodynamic; aqueous medium).
`N#Cc1ccccc1[C@@H]1COCC2(CCOCC2)N1` gave a solubility of over 750 µM (shake-flask, LC-HRMS; aqueous buffer; 16 h, pH 6.8).
The solubility of `COc1ccc(NC(=O)CCSc2nnc3scc(-c4ccc(C)cc4)n23)cc1` is reported as under 3.03 µg/mL (aqueous buffer; pH 7.4).
`O=C(Nc1cc(F)c(F)c(F)c1)c1ccc(F)c(S(=O)(=O)N2CCC(O)CC2)c1` has a solubility of 61.5 µg/mL (phosphate buffer; pH 2.0).
With `Nc1nc2c(ncn2COCCO)c(=O)[nH]1` the solubility was 1100 µg/mL (methanol + water; 24 h, 298.2 K, methanol mass fraction 0.9).
For `COC(=O)c1cccc(-c2cccc(Nc3nccc(NC4CCCCC4)n3)c2)c1`, the solubility was 0.4 ± 1.8 µM (citrate phosphate-buffered saline; 18 h, pH 7.4, 1% DMSO).
The solubility of `COC(=O)Nc1cc(C(=O)Nc2ccc(CN)cc2)cc2ccc(C(=N)N)cc12` is reported as 46.1 µg/mL (aqueous buffer; pH 7.4).
`COc1ccc(-c2cc(=O)c3c(OC)cc(OC)cc3o2)cc1` gave a solubility of 12830 ± 50 ppm (HPLC; ethanol:butylene glycol 75:25).
`Clc1cc(Cl)cc([C@@H]2COC[C@]3(CCOc4ccccc43)N2)c1` gave a solubility of under 4 µM (shake-flask, LC-HRMS; aqueous buffer; 16 h, pH 6.8).
For `[2H]c1cc(C)c(NC(=O)c2cnc(Nc3cc(N4CCCCC4)nc(C)n3)s2)c(Cl)c1`, the solubility was under 1 µg/mL.
The solubility of `CCOC(=O)N1C[C@@H](C2CCCCC2)N[C@@H](c2ccc(C(F)(F)F)cc2)C1` is reported as under 4 µM (shake-flask, LC-HRMS; aqueous buffer; 16 h, pH 6.8).
With `COC(=O)c1ccc(NC(=O)CSc2nnnn2-c2ccccc2OC)cc1` the solubility was under 2.85 µg/mL (aqueous buffer; pH 7.4).
For `O=C1CCC(N2Cc3cc(NC(=O)C4=Cc5cc(Br)cc(Br)c5OC4)ccc3C2=O)C(=O)N1` (stereo not shown), the solubility was at most 25000 µM (DMSO).
With `FC(F)(F)c1ccc([C@@H]2COC[C@H](c3cnc(-c4ccccc4)nc3)N2)cc1` the solubility was under 4 µM (shake-flask, LC-HRMS; aqueous buffer; 16 h, pH 6.8).
For `CCc1cc(C)cc(CC)c1-c1c(OC(=O)C2(C(F)(F)F)CC2)n2n(c1=O)CCOCC2`, the solubility was 333 µM (PBS; pH 7.4, 25 °C, 2% DMSO).
The solubility of `CC(=O)Nc1ccc([C@H]2COC[C@H](c3ccc(C(C)(C)C)cc3)N2)cc1` is reported as under 4 µM (shake-flask, LC-HRMS; aqueous buffer; 16 h, pH 6.8).
With `COc1cc(OC)c2c(=O)c(OC)c(-c3ccc(OC)c(OC)c3)oc2c1` the solubility was 12850 ± 20 ppm (HPLC; ethanol:butylene glycol 25:75).
`NC(=O)c1ccc(C(=O)Nc2cc(C3CC3)[nH]n2)cc1` has a solubility of 8.41 µg/mL (aqueous buffer; pH 7.4).
The solubility of `O=C(Nc1ccc(OC(F)(F)F)cc1)N[C@H]1CC[C@H](Oc2ccc(C(=O)O)cc2)CC1` is reported as 0.534 ± 0.212 µg/mL (deionised water; 30 min, pH 6.6, 37 °C, non-sink dissolution).
`COc1cccc([C@@H]2COCC3(CCOCC3)N2)c1` gave a solubility of over 750 µM (shake-flask, LC-HRMS; aqueous buffer; 16 h, pH 6.8).
`CCOC(=O)c1cnc(Nc2nc3ccccc3o2)nc1CN1CCN(c2ccccc2)CC1` gave a solubility of under 1.64 µg/mL (aqueous buffer; pH 7.4).

Some of these lines once more:
`N#Cc1ccccc1[C@@H]1COCC2(CCOCC2)N1` gave a solubility of over 750 µM (shake-flask, LC-HRMS; aqueous buffer; 16 h, pH 6.8).
`CCOC(=O)c1cnc(Nc2nc3ccccc3o2)nc1CN1CCN(c2ccccc2)CC1` gave a solubility of under 1.64 µg/mL (aqueous buffer; pH 7.4).
`COc1ccc(-c2cc(=O)c3c(OC)cc(OC)cc3o2)cc1` gave a solubility of 12830 ± 50 ppm (HPLC; ethanol:butylene glycol 75:25).
